Assay results pooled from the literature.
Lines come from different studies, so protocols differ. ± gives the spread as reported.

COc1cccc(-c2cc3ccccc3[nH]2)c1
inhibition (HEK293 NF-κB luciferase reporter; reporter gene, refers to: NF-κB; 50 µM, 6 h, with: TNFα): 85.5 ± 3%

[O-][n+]1nc(NCCCNc2n[n+]([O-])c3ccccc3[n+]2[O-])nc2ccccc21
inhibition (HUVEC and fibroblast co-culture; tube formation; 20 µM, 11 d): 80 to 90%

CCn1c(C)c(C(C)=O)s/c1=N/N=C(\C)c1ccccn1
inhibition (Vero; cell growth or viability, SRB; 100 µg/mL, 48 h): 55.8%

LRRFSTMPFAFININNVINF
inhibition (HUVEC; cell adhesion, real-time cell analysis; peptide; 100 µM, 3 h; reference: vehicle): 94.8 ± 0.93%

CCN1C(=O)/C(=C\c2ccc(F)cc2)S/C1=N/N=C(\C)c1ccccn1
inhibition (Vero; cell growth or viability, SRB; 100 µg/mL, 48 h): 64.8%

TAGSCLRKFSTM
inhibition (bovine aortic endothelial cells; cell adhesion; peptide, type IV collagen-coated plate; 4 µg/mL, 15 min then 60 min, room temperature then 37 °C): ~25%

LRRFSTMPFMFCNINNVCNF
inhibition (HUVEC; cell adhesion, real-time cell analysis; peptide; 100 µM, 3 h; reference: vehicle): 96.25 ± 0.34%

CCn1c(-c2ccc(Br)cc2)cs/c1=N/N=C(\C)c1ccccn1
inhibition (Vero; cell growth or viability, SRB; 100 µg/mL, 48 h): 56.4%

O=Cc1c(-c2ccccc2)[nH]c2ccccc12
inhibition (HEK293 NF-κB luciferase reporter; reporter gene, refers to: NF-κB; 50 µM, 6 h, with: TNFα): 36.2 ± 11.4%

LRRFSTMPFMFSNINNVSNF
inhibition (HUVEC; cell proliferation, WST-1; peptide; 100 µM, 72 h; reference: vehicle): 50.5 ± 0.66%

CC(C)(C)OC(=O)n1c(-c2ccccc2)cc2ccccc21
inhibition (HEK293 NF-κB luciferase reporter; reporter gene, refers to: NF-κB; 50 µM, 6 h, with: TNFα): 0%

CCC(C(=O)O)n1c(=NC(=O)c2cccc(C(F)(F)F)c2)sc2cc(F)c(F)cc21 (centres unmarked)
inhibition (NCI-H226; cell invasion; chick chorioallantoic membrane; 50 µM, 48 h; reference: control): 80%

N#Cc1c(-c2ccccc2)[nH]c2ccccc12
inhibition (HEK293 NF-κB luciferase reporter; reporter gene, refers to: NF-κB; 50 µM, 6 h, with: TNFα): 70.2 ± 3.8%

C/C(=N\N=c1/[nH]c(C)c(/N=N/c2ccc(C)cc2)s1)c1ccccn1
inhibition (Vero; cell proliferation, SRB; 100 µg/mL, 48 h): < 45%

COc1ccc(-c2cc3ccccc3[nH]2)cc1
inhibition (HEK293 NF-κB luciferase reporter; reporter gene, refers to: NF-κB; 50 µM, 6 h, with: TNFα): 81.3 ± 1.9%

CCn1c(-c2ccccc2)cs/c1=N/N=C(\C)c1ccccn1
inhibition (Vero; cell growth or viability, SRB; 100 µg/mL, 48 h): 53.9%

LRRFSTMPFMFVNINNVVNF
inhibition (HUVEC; cell adhesion, real-time cell analysis; peptide; 100 µM, 3 h; reference: vehicle): 95.12 ± 0.62%

NCCCCCCCCNc1n[n+]([O-])c2ccccc2[n+]1[O-]
inhibition (HUVEC and fibroblast co-culture; tube formation; 20 µM, 11 d): 80 to 90%

Nc1ccccc1C#Cc1cc(F)cc(F)c1
inhibition (HEK293 NF-κB luciferase reporter; reporter gene, refers to: NF-κB; 50 µM, 6 h, with: TNFα): 31.5 ± 4.3%

CCn1c(C)c(/N=N/c2ccc(Cl)cc2)s/c1=N/N=C(\C)c1ccccn1
inhibition (Vero; cell growth or viability, SRB; 100 µg/mL, 48 h): 62.4%

ON=Cc1c(-c2ccccc2)[nH]c2ccccc12
inhibition (HEK293 NF-κB luciferase reporter; reporter gene, refers to: NF-κB; 50 µM, 6 h, with: TNFα): 73.6 ± 2.6%

LRRFSTMPFMFANINNVANF
inhibition (HUVEC; cell adhesion, real-time cell analysis; peptide; 100 µM, 3 h; reference: vehicle): 98.19 ± 0.03%

CCn1c(C)c(/N=N/c2ccc(C)cc2)s/c1=N/N=C(\C)c1ccccn1
inhibition (Vero; cell growth or viability, SRB; 100 µg/mL, 48 h): 66.7%

Nc1cccc(-c2cc3ccccc3[nH]2)c1
inhibition (HEK293 NF-κB luciferase reporter; reporter gene, refers to: NF-κB; 50 µM, 6 h, with: TNFα): 72 ± 1.9%

COc1ccc(/C=C2/S/C(=N/N=C(\C)c3ccccn3)NC2=O)cc1
inhibition (Vero; cell growth or viability, SRB; 100 µg/mL, 48 h): 61.2%

LRRFSTMPFMFININNVINF
inhibition (HUVEC; cell migration, real-time cell analysis; peptide; 50 µM, with: full medium chemoattractant; reference: vehicle): 92.9 ± 1.78%

Repeated from above:
CC(C)(C)OC(=O)n1c(-c2ccccc2)cc2ccccc21
inhibition (HEK293 NF-κB luciferase reporter; reporter gene, refers to: NF-κB; 50 µM, 6 h, with: TNFα): 0%

[O-][n+]1nc(NCCCNc2n[n+]([O-])c3ccccc3[n+]2[O-])nc2ccccc21
inhibition (HUVEC and fibroblast co-culture; tube formation; 20 µM, 11 d): 80 to 90%
